Measurements from different studies.
A part holds a random share of what one study measured.

Series 1 — method: protein-binding microarray; molecule type: double-stranded DNA, one strand shown; sample: in vitro; tested at: 250 nM; setting: 60-bp whole probe; with: salmon DNA 0.4 mg/ml; relative to: random background probes; reading: higher = stronger binding; shared flanks, not repeated: GCCTAGCAC … GTCTTGATTCGCTTGACGCTGCTG
Target: Interferon regulatory factor 5, full length, phosphomimetic (IRF5, Homo sapiens, UniProt Q13568-2, residues 1-514, K96S/S451D/S453D/S456D/S462D)
Oligonucleotide	log fluorescence [z-score]
GATGAAGATGTAGAACTTTTGTGCTAG	0.16
TTAGGTTTCGTCTTTCGGTTAGTGCTA	9.68
TTAGGTTTCGACAATGGGTTAGTGCTA	6.22
TCATCTTTTCTTTTCTTACTGTGCTAG	1.73
GAAGATTTCAGTATCGAGACGTGCTAG	3.85
GACGAACTCAGTCTCGAGACGTGCTAG	-0.0421
GACGAACTGGGGTTTCGATACGTGCTA	5.22
TTACAACTGGGGACTGGATTAGTGCTA	0.0813
TCAGACATCTTCATCAAACTGTGCTAG	0.286
TTAGGACTGGGACTGTGTTAGTGCTAG	-0.744
CAGTTTTCCTCTGTCATTTTGTGCTAG	1.68
AGTGAATTAGGTTTCACTTTGTGCTAG	4.37
ATATATGTAATCATTCACCTGGTGCTA	0.523
ATATCTTATCCTATCAGTTTGTGCTAG	1.16
GAGGATTTCAGTTTCGAGACGTGCTAG	6.58
GACGGACTGGACTAGCGGGACGTGCTA	-0.871
TTAGGACTGCTTTTCCTTCAGTGCTAG	0.00913
TTAGATTTCAGACTAGATTAGTGCTAG	0.412
GACGATATCGGGACTGGATACGTGCTA	0.886
TTAGGACTGCTTATCGTTTAGTGCTAG	0.317
TTAGAACCGAGTTTCGATTAGTGCTAG	9.04
GACGGTATCCTTTTCCTGTCGTGCTAG	0.469
TCACTTTCACTTCTCCCACTGTGCTAG	9.23

Series 2 — method: RNA Bind-n-Seq; molecule type: RNA; sample: in vitro; tested at: 200 nM; setting: whole 134-nt RNA, ends assumed; with: 150 mM KCl; relative to: input library; reading: higher = stronger binding
Target: Ras GTPase-activating protein-binding protein 1, full length (G3BP1, Homo sapiens, UniProt Q13283)
Sequence of UniProt Q13283 (whole entry, looked up): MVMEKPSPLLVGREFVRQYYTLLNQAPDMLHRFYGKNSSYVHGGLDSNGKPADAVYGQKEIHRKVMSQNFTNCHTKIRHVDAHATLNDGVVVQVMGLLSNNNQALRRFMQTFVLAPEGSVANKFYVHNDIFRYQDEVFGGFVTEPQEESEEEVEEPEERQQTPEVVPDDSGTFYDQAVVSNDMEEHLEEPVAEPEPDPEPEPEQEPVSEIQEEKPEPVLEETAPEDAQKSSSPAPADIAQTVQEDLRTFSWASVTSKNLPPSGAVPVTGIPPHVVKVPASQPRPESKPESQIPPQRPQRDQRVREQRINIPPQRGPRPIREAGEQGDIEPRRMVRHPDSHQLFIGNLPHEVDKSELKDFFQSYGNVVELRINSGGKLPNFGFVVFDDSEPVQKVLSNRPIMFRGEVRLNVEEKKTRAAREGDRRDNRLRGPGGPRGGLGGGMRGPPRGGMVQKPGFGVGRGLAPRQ
Oligonucleotide	log2 enrichment
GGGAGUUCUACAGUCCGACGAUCAAGUCCUGUGCUACACAUCGUAUGUACCGAAUCGGGGAGGGGAAAAAGGGGAGGGGAAAGUAUUAUGUUACGCCGUUCGGAUCUGCACUUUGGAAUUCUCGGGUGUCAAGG	0.843
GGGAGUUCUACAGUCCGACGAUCCAAGUCCUGUGCUACACAUCGUAUGUACCGAAUCAAACCCAAAUUUAAAUUUAAAAAAGUAUUAUGUUACGCCGUUCGGAUCUGCACUUCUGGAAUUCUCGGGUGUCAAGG	-0.217
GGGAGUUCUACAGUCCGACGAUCUCAAGUCCUGUGCUACACAUCGUAUGUACCGAAUCGGUUUUUGGAAAGGUUUGGAAAGUAUUAUGUUACGCCGUUCGGAUCUGCACUUCCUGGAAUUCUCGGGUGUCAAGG	-1.18
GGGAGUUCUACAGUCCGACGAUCUGGCCCUGGUGGCAUGCGGGGAGGAAGAGGUGGCCUCAUGGAUCGUGGUGGUCCCGGUGGAAUGUUCAGAGGUGGCCGUGGUGCAGACAGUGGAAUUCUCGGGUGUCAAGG	0.308
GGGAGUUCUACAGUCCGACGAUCCAAGUCCUGUGCUACACAUCGUAUGUACCGAAUCGGAAAAAAAGGUUUUUGGAGGAAAGUAUUAUGUUACGCCGUUCGGAUCUGCACUUCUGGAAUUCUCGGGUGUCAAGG	-1.21
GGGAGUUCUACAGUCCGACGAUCUCAUGUGGAUGAAGCAGAAAAAGAAGCUCAGAAGAAGCCAGCUGAAUCUCAAAAAAUAGAGCGUGAAGAUGCCCUGGCUUUUAAUUCAGCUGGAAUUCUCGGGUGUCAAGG	-0.984
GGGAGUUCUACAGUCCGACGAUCUUGCGCCUGUCCCGGGUGAAGUGUGUCGGCCUCUCCGCACGCACCACGGAGACCAGCAGUGCAGUCAUGUGCCUGGACCUUGCAGCUUCCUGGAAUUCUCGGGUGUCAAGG	-0.265
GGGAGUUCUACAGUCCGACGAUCGCUGUUCUUGCCUUAGCUGCAUCUUGGACCUCAAGACAAGUAGGAGAACGGACGUUGACCGGUACGGUAAUAGACAGUGGAGAUGGUGUCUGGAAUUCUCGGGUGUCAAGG	-1.19
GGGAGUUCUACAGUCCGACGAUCUAACUUUAGAGGAGGAUCUGAUGGAUAUGGCAGUGGACGUGGAUUUGGGGAUGGCUAUAAUGGGUAUGGAGGAGGACCUGCAGGUGGCAAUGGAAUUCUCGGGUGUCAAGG	-0.00905
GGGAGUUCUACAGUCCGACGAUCGCAGGAAUUAAAAACAAAUGGAAAUGCUUCGGAUAGUGGCAGGGGUGGGGGUUGCUAAGGAAAGGGUGGGAUGGGAGUGGGUAAAGAGUUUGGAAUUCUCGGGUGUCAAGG	1.37
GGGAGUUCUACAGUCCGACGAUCCAAGUCCUGUGCUACACAUCGUAUGUACCGAAUCGGUUUUUGGUGGUUUUUUUGGAAAGUAUUAUGUUACGCCGUUCGGAUCUGCACUUCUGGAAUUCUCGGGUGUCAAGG	-1.12
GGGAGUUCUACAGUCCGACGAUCAAGUCCUGUGCUACACAUCGUAUGUACCGAAUCGGGGCCCCGGCCCCGGGCCCCGGAAAGUAUUAUGUUACGCCGUUCGGAUCUGCACUUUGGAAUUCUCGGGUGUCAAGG	-0.919
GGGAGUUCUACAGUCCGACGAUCAGUCCUGUGCUACACAUCGUAUGUACCGAAUCGGGCCCCCGGCCCCCGGGCCCCCGGGAAAGUAUUAUGUUACGCCGUUCGGAUCUGCACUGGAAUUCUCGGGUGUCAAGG	-0.928
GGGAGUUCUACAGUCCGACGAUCACCAUGCAGGUGGGCAUCUUUGGGAAGUGGGGCAAGGGGGGGAUAGGGAGGGGGGUAACACUUUGGGAACAGCUGGUCCCAGGUCGUUUCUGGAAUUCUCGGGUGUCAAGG	1.32

Series 3 — method: RNA Bind-n-Seq; molecule type: RNA; sample: in vitro; tested at: 365 nM; relative to: no-protein control; reading: higher = stronger binding
Target: RNA binding protein fox-1 homolog 2, RRM domain, GST-SBP tag (RBFOX2, Homo sapiens, UniProt O43251-10, residues 100-194)
Setting: natural RNA segment, single round, ends assumed
Construct (chain): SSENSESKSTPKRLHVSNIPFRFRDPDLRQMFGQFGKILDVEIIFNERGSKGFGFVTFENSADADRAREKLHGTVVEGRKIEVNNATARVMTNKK
Oligonucleotide	RBNS enrichment (R)
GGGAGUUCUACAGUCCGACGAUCGUUGGAGGCCAUGUAUUAUUUCAGUUCAACUGGAUGAAAUGUUAAAUAAACUCAGAAUGAAAAUAAAUUCUCUCUUUUAUUUGUACAUAAAGGAUAAAGCAGUUUGUGUGUGGAAUUCUCGGGUGCCAA	0.532
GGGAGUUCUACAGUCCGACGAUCGAGCUCUGGCCUAGGGACCUUGCCGCUGACCAAGAGGGAGGACCAGUGCAGGGUCUGUGCACCUUCCCUGCUGGCCUGCACACAGCUGCUCAGCACCACUUUCAUUCUGGUGGAAUUCUCGGGUGCCAA	0.451
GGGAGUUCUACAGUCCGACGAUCGGGAGGGGUCUCCUGCUGGGGUCCUGAUGCCUCUGUUUCCAAACAAGGUACAGGUUCAGUCCAGACUCUUUCCCCCUGGGACCAACAGCAGCCAGAGCAGUUAGCCAGUUUGGAAUUCUCGGGUGCCAA	0.259
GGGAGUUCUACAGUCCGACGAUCCACUCGCUGCCGGGACCCUUUCACUGCCCCGGUGGAGUGAAUAGAGGAUGAGGGGCCCUGACCCUGUGUCUCCAACUGCUGCACCCCAUCCCGACCCUGUCUCCGCCACCUGGAAUUCUCGGGUGCCAA	0.357
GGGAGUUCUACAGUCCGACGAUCUCACUGUAAUGGUGCUAUUAACAAACAGUCAACACCAUUGUAUUUUUUAACUUCGUGUUCUGUAUCUCCUCAGCCAUGUAUCUUAAAUAUAUUUUGUCAUCAUAAUCUUUUGGAAUUCUCGGGUGCCAA	1.14
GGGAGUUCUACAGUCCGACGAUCAGGCUUUCCAUUUAACAUGGAAUCCUUCUCCCCAAGAAGGCUUCUUCCUUGUUUUAGAGGAAGGUACUGCCUUUUUGGACUUAGGGAUGUCAUGGGACCUCAGUAACGAGUGGAAUUCUCGGGUGCCAA	0.232
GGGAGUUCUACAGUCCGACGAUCUGGAUGAGGCUAGUGACUCUGUGGGUGUCCUGAACAGUGAAGUUCACUGUCUCCAUGUGAUUGUUACAAGCGUUUGUGCAGUUCUACUACAAUGAUAUCUGUAUGUCACUUGGAAUUCUCGGGUGCCAA	0.337
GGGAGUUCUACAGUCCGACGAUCGUUCCAUGAGCUAUUCCUCUUUGGUUUGGCUUUUUGAUAUGAUUAAAAUUAUUUUUUAUUCCUUUUUCUACUGUGUCUUAAACACCAAUUCCUGAUAGUCCAAGGAACCAUGGAAUUCUCGGGUGCCAA	0.452
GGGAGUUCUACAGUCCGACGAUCAGGAAAGGACAUGGGUAGCAAUUCUACCCAGAGCCUUCUCCUGCCUACAUUCCCUGGCCUGGCUCUCCUGUAGCUCUCCUGGGGUUCUGGGAGUUCCCUGAACAUCUGUGUGGAAUUCUCGGGUGCCAA	0.314
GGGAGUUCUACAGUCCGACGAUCGCACUAGCAUCCAGAGUCAGAGUUGGUCUGGUGGCUCCAGCCCCACGUGGUAGGCUCCACACUGGGCCUCACAUGGAAUGGUUUCCUGCUCAGAUCCAGUCCACGGGUCCUGGAAUUCUCGGGUGCCAA	0.551
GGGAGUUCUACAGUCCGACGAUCAGACUCUCGGGGCUGGUGCCAGUGCCCCAGGGGCCUCCUGGGCCACGGGCUGGAGGGGCUGCCCAGGGACCUUGGUCUCGAAGCCAUACGUGGUUGUCUGCUUUCCUAAGUGGAAUUCUCGGGUGCCAA	0.292
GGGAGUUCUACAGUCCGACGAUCCCCCAUAACCAAACAUAAGCUAGCUAGUCUUGUCUAAUAGAUGGGAUUUACUAUAGGUGAAGAUAGCCCUCAUAUUCAAGGACAGAAGCUCUGGCAGGAGUAAAUUAGCAUGGAAUUCUCGGGUGCCAA	20.4

Series 4 — method: universal PBM; molecule type: double-stranded DNA, one strand shown; sample: in vitro; tested at: not given; reading: higher = stronger binding
Target: Sal-like protein 4, full length isoform B (SALL4, Homo sapiens, UniProt Q9UJQ4-2, residues 1-616)
Setting: 8-mer, flanks averaged, mean of replicates
Oligonucleotide	E-score
TCAGACAA	-0.0115
AGCAAGCG	-0.161
GAAGGAAA	0.011
GAGATGTA	0.165
GTTTAATA	0.394
AGAGCAGG	-0.0335
AAATTTTG	0.294
TCGTAACA	0.172
AGACTACG	-0.165
CGCATTAC	0.0207
CATGTAAC	0.239
CCGCTGAG	-0.267
CAAAGCTG	0.0558
AGGTGTGC	-0.114
CGGGCTTC	-0.388
ATGGTTTC	0.118
TCTTTTCA	0.148
ACAGCTGC	-0.0506
CGGCATCC	-0.177
AAGAGGTC	-0.0442
CAGAACGC	-0.223
AAGAAGGA	-0.0151

Repeated from above (series 4):
Oligonucleotide	E-score
CAGAACGC	-0.223
AGAGCAGG	-0.0335
GAAGGAAA	0.011
AGGTGTGC	-0.114
CATGTAAC	0.239
AAGAGGTC	-0.0442
AAATTTTG	0.294
ACAGCTGC	-0.0506
TCAGACAA	-0.0115
CGCATTAC	0.0207
CCGCTGAG	-0.267
